# Experimental data collected from several papers.
# ± gives the spread as reported.
Structure (SMILES),cell line,test,setting,EC50
COc1cc(-c2nn(CCN3CCC(N(C)C)CC3)c3ncnc(N)c23)ccc1NC(=O)OC(C)(C)C,SKGT4,,120 h,3.79 µM
COc1cnc2cccc(N3CCc4c(cc(Cn5ccnc5C)cc4-c4cn(C)nc4C(F)(F)F)C3=O)c2c1,HGC-27,"cell growth, inhibitor",120 h,> 30 µM
C=C(NC(=O)C(=C)NC(=O)c1csc(C2=N[C@@H]3c4csc(n4)[C@H]4NC(=O)c5csc(n5)[C@H]([C@](C)(O)[C@@H](C)O)NC(=O)[C@H]5CSC(=N5)/C(=C/C)NC(=O)[C@H]([C@@H](C)O)NC(=O)c5csc(n5)[C@]3(CC2)NC(=O)[C@H](C)NC(=O)C(=C)NC(=O)[C@H](C)NC(=O)[C@H]([C@@H](C)CC)N[C@@H]2C=Cc3c([C@H](C)O)cc(nc3[C@H]2O)C(=O)O[C@@H]4C)n1)C(N)=O,NCI-H358,cell viability,,1.8 µM
[Cl-].[Cl-].[Os+2].c1cnc2c(c1)ccc1cccnc12.c1cnc2c(c1)ccc1cccnc12.c1cnc2c(c1)ccc1cccnc12,SK-MEL-28,"cell viability, resazurin","dark, 1% O2 hypoxia",168 ± 2 µM
C=CCNC1=C2C[C@@H](C)C[C@H](OC)[C@H](O)[C@@H](C)/C=C(\C)[C@H](OC(N)=O)[C@@H](OC)/C=C\C=C(/C)C(=O)NC(=CC1=O)C2=O,MYBPC3 iPSC-cardiomyocytes,MYH level,24 h,36.8 µM
Cc1cc(Nc2ncc(Cl)c(Nc3ccccc3S(=O)(=O)C(C)C)n2)c(OC(C)C)cc1C1CCNCC1,iPSC-derived maturing neurons,CellTiter-Blue metabolic,"24 h, 4-week maturation",> 10 µM
CCn1cc(-c2cc(Cn3ccoc3=N)cc3c2CCN([C@@H](C)c2cc(OC)ccn2)C3=O)c(C(F)(F)F)n1,HEC-1B,"cell growth, inhibitor",120 h,0.0617 µM
Cc1ccc(-c2nc3ccccc3s2)cc1NC(=O)c1cc([N+](=O)[O-])c(NCCN(C)C)cc1Cl,BJ fibroblasts,"cell growth, CellTiter-Glo",72 h,> 17.2 µM
N[C@@H](COCC(=O)N1CCC[C@H](C(=O)NCc2nc(-c3ccc(C(F)(F)F)cc3)cs2)C1)c1ccccc1,Jurkat,cytotoxicity,,~10 µM
O=C(Nc1cncc(-c2nc3ccccc3s2)c1)c1cc([N+](=O)[O-])c(N2CCNCC2)cc1Cl,BJ fibroblasts,"cell growth, CellTiter-Glo",72 h,> 15.3 µM
c1ccc(COc2ccc(Nc3ccc4ncc(OCC5CCNCC5)nc4c3)cc2)cc1,Jurkat,"cell growth, XTT",7 days,2.3 ± 0.17 µM
Clc1ccc(COc2cncc(-c3cnn(C4CCNCC4)c3)c2)c(Cl)c1,HMC3,"phagocytosis, high-content imaging","geometric mean, added: pHrodo-myelin uptake",0.767 µM
CCn1cc(-c2cc(Cn3ccnc3)cc3c2CCN([C@H](c2cc(OC)ccn2)C2CC2)C3=O)c(C(F)(F)F)n1,HT115,"cell growth, inhibitor",120 h,0.211 µM
C[C@]12CCCN1CC1=NNC(=O)c3cc(F)cc4[nH]c2c1c34,RKO colorectal cancer cells,cell viability,"concentration not given, added: with temozolomide",> 3 µM
CC(C)NCCCn1c(Sc2cc3c(cc2I)OCO3)nc2c(N)ncnc21,MYBPC3 iPSC-cardiomyocytes,refers to: MYH,24 h,inactive
Cc1ccc(-c2nc3ccccc3o2)cc1NC(=O)c1cc([N+](=O)[O-])c(F)cc1Cl,BJ fibroblasts,"cell growth, CellTiter-Glo",72 h,> 16 µM
c1cc(-c2cc3ncc(OCC4CCNCC4)nc3cc2-c2cccc(N3CCCCC3)c2)cc(N2CCCCC2)c1,Jurkat,"cell growth, XTT",7 days,0.7 ± 0.03 µM

# Excerpt of the above:
Structure (SMILES),cell line,test,setting,EC50
COc1cnc2cccc(N3CCc4c(cc(Cn5ccnc5C)cc4-c4cn(C)nc4C(F)(F)F)C3=O)c2c1,HGC-27,"cell growth, inhibitor",120 h,> 30 µM
C=C(NC(=O)C(=C)NC(=O)c1csc(C2=N[C@@H]3c4csc(n4)[C@H]4NC(=O)c5csc(n5)[C@H]([C@](C)(O)[C@@H](C)O)NC(=O)[C@H]5CSC(=N5)/C(=C/C)NC(=O)[C@H]([C@@H](C)O)NC(=O)c5csc(n5)[C@]3(CC2)NC(=O)[C@H](C)NC(=O)C(=C)NC(=O)[C@H](C)NC(=O)[C@H]([C@@H](C)CC)N[C@@H]2C=Cc3c([C@H](C)O)cc(nc3[C@H]2O)C(=O)O[C@@H]4C)n1)C(N)=O,NCI-H358,cell viability,,1.8 µM
